# Assay results gathered from unrelated publications.
# Every numbered part comes from another study and shows a few of its results, in no order. Changes are numbered by the printed parent chain.

# Sample 1 — target: CCNB1, cyclin fold, Cln2 fusion (human); technique: yeast growth competition, sequencing; medium: yeast; notes: weak parent motif; relative to: not given; direction: higher = stronger binding
# Starting sequence: CDT1 docking peptide (human); PPARRRLRLSVDE
Substitution,normalised enrichment score
PPARRRLRFSVDE [L9F],1.2
PPAARRLRLSVDE [R4A],0.314
PPARRALRLSVDE [R6A],0.629
PPARRRLRLAVDE [S10A],0.365
PAARRRLRLSVDE [P2A],0.489
PPARKRLRLSVDE [R5K],0.58
PPARRRLRLSVAE [D12A],1.72
PPARRRARLSVDE [L7A],1.43
PPARARARLSVDE [R5A L7A],0.174

# Sample 2 — technique: protein binding microarray; molecule type: double-stranded DNA, one strand shown; medium: in vitro; concentration: not given; relative to: not given; direction: higher = stronger binding
# Target: Histone acetyltransferase KAT6A, winged helix 2, GST fusion (KAT6A, Homo sapiens, UniProt Q92794, residues 85-181)
# Notes: 8-mer, flanks averaged, mean of 2 arrays, mostly near background
# Target sequence (chain): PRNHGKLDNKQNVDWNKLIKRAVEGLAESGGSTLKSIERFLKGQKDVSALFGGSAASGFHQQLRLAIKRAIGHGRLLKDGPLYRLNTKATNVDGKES
Oligonucleotide,E-score
GTCGTGGA,0.00438
AGAGGTTA,-0.0366
GGGAGCAA,-0.041
CCCACCCC,0.00369
TATACCAA,-0.0614
CGTATAAC,-0.0244
CGACAACG,-0.0651
ACGCCTGG,0.12
CGGGAGGC,0.0856
GCAAAGCA,0.0794
ATTCTAAC,-0.0295
CGATAAAC,-0.194
AAAATCGG,0.0326
GCATGCAA,0.0129
ATACTGAG,-0.0524
ATGCGCCA,0.00704

# Sample 3 — technique: universal PBM; molecule type: double-stranded DNA, one strand shown; medium: in vitro; concentration: not given; direction: higher = stronger binding
# Target: Sal-like protein 4, full length isoform B (SALL4, Homo sapiens, UniProt Q9UJQ4-2, residues 1-616)
# Notes: 8-mer, flanks averaged, mean of replicates
Oligonucleotide,E-score
CTATCCAC,-0.014
CTACCGCC,-0.272
GACATGGC,-0.132
ATTCGTCC,0.149
AACCCCAT,-0.0345
CCCTGCTA,-0.219
ATATGGGA,0.19
CAGGCACA,-0.114
CATTGCCG,-0.0899
GCATGTCA,0.0596
ATCACGTG,-0.0283
CACTGCAA,0.0343
ATTTCTTA,0.27
CTACACGA,0.0971
GGTGAACA,-0.0315
AAAAACTA,0.225
TCGTCGCA,-0.222
AGAGGATA,0.166
CGTCTATA,0.109
ACGCGTGG,-0.153

# Sample 4 — technique: RNA Bind-n-Seq; molecule type: RNA; medium: in vitro; concentration: 1 µM; notes: whole 134-nt RNA, ends assumed; added: 150 mM KCl; relative to: input library; direction: higher = stronger binding
# Target: Ras GTPase-activating protein-binding protein 1, RRM domain (G3BP1, Homo sapiens, UniProt Q13283)
# Sequence of UniProt Q13283 (whole entry, looked up): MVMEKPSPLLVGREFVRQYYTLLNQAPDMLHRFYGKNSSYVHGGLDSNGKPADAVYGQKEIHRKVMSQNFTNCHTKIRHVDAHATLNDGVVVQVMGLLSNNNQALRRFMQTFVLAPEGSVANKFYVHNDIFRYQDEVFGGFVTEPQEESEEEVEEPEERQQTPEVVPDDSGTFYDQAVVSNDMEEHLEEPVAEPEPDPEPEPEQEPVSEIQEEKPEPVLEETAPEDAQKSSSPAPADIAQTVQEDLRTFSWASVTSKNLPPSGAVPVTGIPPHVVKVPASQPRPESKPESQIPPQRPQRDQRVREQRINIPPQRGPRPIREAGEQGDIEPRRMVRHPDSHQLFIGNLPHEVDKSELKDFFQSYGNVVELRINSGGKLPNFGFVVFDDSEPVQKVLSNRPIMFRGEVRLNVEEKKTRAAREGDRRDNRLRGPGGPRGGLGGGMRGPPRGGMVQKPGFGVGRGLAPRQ
# Constant ends, left off below: GGGAGUUCUACAGUCCGACGAUC … UGGAAUUCUCGGGUGUCAAGG
Oligonucleotide,log2 enrichment
CCUGUGCUACACAUCGUAUGUACCGAAUCGGGGUUUUUUUGGGGAAAAAAAGGGGAGGGGAAAGUAUUAUGUUACGCCGUUCGGAUCUGC,0.0818
AAGUCCUGUGCUACACAUCGUAUGUACCGAAUCGGGGCCCGGGCCCGGGGCCCGGGGAAAGUAUUAUGUUACGCCGUUCGGAUCUGCACU,-1.24
AGUCCUGUGCUACACAUCGUAUGUACCGAAUCGGGUUUGGGUUUUUGGGUUUUUGGGAAAGUAUUAUGUUACGCCGUUCGGAUCUGCACU,0.467
UAACUUUAGAGGAGGACCUGAUGGAUAUGGCAGUGGACGUGGAUUUGGGGAUGGCUAUAAUGGGUAUGGAGGAGGACCUGGAGGUGGCAA,-0.787
GUCCUGUGCUACACAUCGUAUGUACCGAAUCAAACCCAAAUUUUUUUAAACCCCCAAAAAAGUAUUAUGUUACGCCGUUCGGAUCUGCAC,-0.801
UCCUGUGCUACACAUCGUAUGUACCGAAUCGGGAAAGGGAAAAAAAGGGUUUUUUUGGGAAAGUAUUAUGUUACGCCGUUCGGAUCUGCA,0.0748
UGGCCCUGGUGGCAUGCGGGGAGGAAGAGGUGGCCUCAUGGAUCGUGGUGGUCCCGGUGCAAUGUUCAGAGGUGGCCGUGGUGGAGACAG,0.67
CACAGACAACACGCACCCACACAGACACAGAGGGAAGGGGUUGGGAUGGGGACAGGGUGCACAGCAGAAAGGGGUAGGACCCCAGCCCCU,-0.0894
UCAAGUCCUGUGCUACACAUCGUAUGUACCGAAUCGGGAAGGGGAAGGGGAAGGGAAAGUAUUAUGUUACGCCGUUCGGAUCUGCACUUC,1
AGUCCUGUGCUACACAUCGUAUGUACCGAAUCGGGCCCCCGGCCCCCGGGCCCCCGGGAAAGUAUUAUGUUACGCCGUUCGGAUCUGCAC,-0.712
GCAGGAAGUAAAACCAAAUGGAAAUGCUUCGGAUAGUGGCAGGGGUGGGGGUUGCUAAGGAAAGGGUGGGAUGGGAGUGGGUAAAGAGUU,1.19
GUCCUGUGCUACACAUCGUAUGUACCGAAUCGGGUUUGGGAAAAAGGGUUUUUUUGGGAAAGUAUUAUGUUACGCCGUUCGGAUCUGCAC,0.364
UCCUCAAGUCCUGUGCUACACAUCGUAUGUACCGAAUCGGAAGGAAGGAAGGAAAGUAUUAUGUUACGCCGUUCGGAUCUGCACUUCCAG,-0.0873
GCAGGAAUUAAAAACAAAUGGAAAUGCUUCGGAUAGUGGCAGGGGUGGGGGUUGCUAAGGAAAGGGUGGGAUGGGAGUGGGUAAAGAGUU,1.31

# Sample 5 — technique: aptamer microarray, sandwich; molecule type: DNA with 2'F-ANA; medium: in vitro; concentration: 200 nM; added: Cy3 exosite-II aptamer, 400 nM; direction: higher = stronger binding; oligonucleotide: GGTTGGTGTGGTTGG
# Target: Prothrombin, mature alpha-thrombin (F2, Homo sapiens, UniProt P00734)
# Notes: whole 15-mer aptamer, many near background
Modification,mean fluorescence intensity [a.u.]
2'F-ANA at 8 9 13 15,389
2'F-ANA at 3 6 7 13 14 15,536
2'F-ANA at 1 7 8 11 12 13 14,79.1
2'F-ANA at 2 6 7 11 12,594
2'F-ANA at 2 5 7 11 13,52.1
2'F-ANA at 3 5 6 7 9 10 12 14,49.9
2'F-ANA at 1 8 10,67.3
2'F-ANA at 6 8 9 11 12 15,612
2'F-ANA at 3 4 6 9 11 12 13 14 15,221
2'F-ANA at 1 6 11 14 15,53.9
2'F-ANA at 1 2 6 8 13 15,127
2'F-ANA at 2 3 4 5 6 8 9 10 12 15,60.7
2'F-ANA at 1 2 3 4 6 8 11 12,303
2'F-ANA at 2 4 6 7 11 12 13 14 15,86.8
2'F-ANA at 1 2 5 6 8 9 10 13 14 15,49.8
2'F-ANA at 2 5 6 8 10 11 12 13 14,47.3
2'F-ANA at 1 2 5 6,56
2'F-ANA at 2 3 7 8 10 11 12 13 14 15,263
2'F-ANA at 4 5 6 7 10 11 12,61.9
2'F-ANA at 1 4 5 7 10 13 14,61.3

# Sample 6 — target: OGT, full length, His-tagged (human); technique: phage display, sequencing; medium: in vitro; concentration: 1 µg OGT; relative to: input library; direction: higher = stronger binding; starting sequence: peptide; VAYPNSYMPKYQIST
# Notes: single substitutions, 15-mer displayed peptide, unchanged parent 6.14
Substitution,fold enrichment
VAYENSYMPKYQIST [P4E],8.58 fold
VAYHNSYMPKYQIST [P4H],5.79 fold
VAYPNIYMPKYQIST [S6I],11.3 fold
VAYPNSHMPKYQIST [Y7H],0.689 fold
VAYPNSYMPKYQISS [T15S],2.69 fold
VAYPNSYMPKYQWST [I13W],0.502 fold
VAYPNVYMPKYQIST [S6V],6.83 fold
VAYPNSYMPKYQIKT [S14K],13.2 fold
VAYPNSYMPKYIIST [Q12I],1.91 fold
VAYPNSYMPKYQGST [I13G],0.159 fold
VAYPWSYMPKYQIST [N5W],5.42 fold
VAYPNSYMPPYQIST [K10P],0.715 fold
VAYPNSYMNKYQIST [P9N],0.795 fold
VAYPNSYMPKYQIIT [S14I],15.5 fold
VAYPNSYLPKYQIST [M8L],9.3 fold
VAYPNSYMPWYQIST [K10W],1.45 fold
VAYFNSYMPKYQIST [P4F],7.61 fold
VAYPNSMMPKYQIST [Y7M],0.691 fold

# Sample 7 — technique: protein-binding microarray; molecule type: double-stranded DNA, one strand shown; medium: in vitro; concentration: 2540 nM top; notes: 60-bp whole probe; added: salmon DNA 0.4 mg/ml; relative to: random background probes; direction: higher = stronger binding; constant ends, left off below: GCCTAGCAC … GTCTTGATTCGCTTGACGCTGCTG
# Target: Interferon regulatory factor 3, full length, phosphomimetic (IRF3, Homo sapiens, UniProt Q14653, residues 1-427, S386D/S396D/S398D/S402D/T404D/S405D)
# Target sequence (chain): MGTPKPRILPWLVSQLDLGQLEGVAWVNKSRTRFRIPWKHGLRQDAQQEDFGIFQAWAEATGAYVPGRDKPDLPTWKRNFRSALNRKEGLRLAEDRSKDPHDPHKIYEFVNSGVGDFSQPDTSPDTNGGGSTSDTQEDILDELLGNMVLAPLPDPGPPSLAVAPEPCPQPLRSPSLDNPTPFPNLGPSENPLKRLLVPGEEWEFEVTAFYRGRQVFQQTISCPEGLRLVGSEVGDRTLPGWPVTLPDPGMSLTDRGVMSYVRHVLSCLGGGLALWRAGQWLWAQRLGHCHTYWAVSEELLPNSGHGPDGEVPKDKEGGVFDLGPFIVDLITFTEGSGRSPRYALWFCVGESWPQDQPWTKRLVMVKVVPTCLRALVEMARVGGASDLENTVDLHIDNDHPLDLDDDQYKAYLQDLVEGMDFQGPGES
Oligonucleotide,fitted relative affinity
GACGGTATCGGTATCGGGAGGTGCTAG,4.63 z-score
TAGGGACTCGGGTCTCCCTTGGTGCTA,-1.07 z-score
GACGACTTCAGTTTCGAGACGTGCTAG,2 z-score
TTGGAACTGGGGTATCGATTAGTGCTA,-0.533 z-score
TTAGGTTTCGGGACAGGGTTAGTGCTA,3.89 z-score
TCCAATTGTCCTTTCACTTTGTGCTAG,3.19 z-score
GACGATCACAGTTTCGAGACGTGCTAG,1.87 z-score
AGTGGGGAGGGAGAGAATCCGTGCTAG,-0.551 z-score
TCACATCTGCAAGATCCAACTGTGCTA,0.713 z-score
TTAGGTTCCCTTTTCCTATAGTGCTAG,7.8 z-score
TACGATATCAGACTGGAGACGTGCTAG,0.0596 z-score
TTAGTTTCCGGTTTCGGTTAGTGCTAG,7.9 z-score
GACGGTATCGGGACGGGGGACGTGCTA,1.36 z-score
TCACTTCTGGTCTTCTGACTGTGCTAG,1.22 z-score
TTGAAAAAATATTTATTTCAGTGCTAG,-0.1 z-score
GACCGTATCGGGTTTCGGGACGTGCTA,3.33 z-score
TTAGATTTCAGCTTCGATTAGTGCTAG,0.627 z-score
TTAGATTGCGGGTTTCGATTAGTGCTA,2 z-score
